Measurements gathered from unrelated publications.
A part holds a random share of what one study measured.

Series 1 — method: RNAcompete; molecule type: RNA; medium: in vitro; tested at: 20 nM; setting: 7-mer, probes averaged, single round; relative to: mean of 7-mers; direction: higher = stronger binding
Target: PABPC1L2, full length, GST fusion (mouse, UniProt A0ABA7IW68)
Target sequence (chain): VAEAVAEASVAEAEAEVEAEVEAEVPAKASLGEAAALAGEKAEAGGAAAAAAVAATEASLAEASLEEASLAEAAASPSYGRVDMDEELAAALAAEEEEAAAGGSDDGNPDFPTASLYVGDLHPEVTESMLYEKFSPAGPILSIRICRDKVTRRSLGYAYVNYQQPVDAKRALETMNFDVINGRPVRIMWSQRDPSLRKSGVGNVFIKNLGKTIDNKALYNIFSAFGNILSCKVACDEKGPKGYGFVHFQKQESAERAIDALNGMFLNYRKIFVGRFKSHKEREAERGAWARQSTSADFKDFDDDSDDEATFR
| Sequence | 7-mer Z-score |
| --- | --- |
| AUAGUUC | -0.246 |
| UGCCGUA | -0.36 |
| AGCACCU | -0.266 |
| AACUGCC | 0.195 |
| UAAGUGU | -0.235 |
| AGCACUU | -0.0881 |
| GGUUCUG | -0.186 |
| GAGAUCG | -0.0591 |
| GUGCUAC | -0.121 |
| AUAGCAC | -0.124 |
| CAAUAGC | -0.0319 |
| CGAGGCC | -0.213 |
| AGCUCGC | -0.304 |
| UCACGAU | -0.108 |
| AUCCUCG | -0.393 |
| AUCACCG | -0.144 |
| GUCGACA | -0.159 |
| GUCUUGA | -0.378 |
| AGUGCCU | -0.242 |
| UUCAAUU | -0.315 |
| UUGAAUC | -0.15 |
| UCAAUAU | -0.168 |
| GGUCCCU | -0.208 |
| GGCGGUG | 0.109 |
| CUUUGCU | -0.476 |

Series 2 — method: universal PBM; molecule type: double-stranded DNA, one strand shown; medium: in vitro; tested at: 600 nM; direction: higher = stronger binding
Target: Sal-like protein 4, full length isoform A (SALL4, Homo sapiens, UniProt Q9UJQ4, residues 1-1053)
Chain of UniProt Q9UJQ4 (whole entry, looked up): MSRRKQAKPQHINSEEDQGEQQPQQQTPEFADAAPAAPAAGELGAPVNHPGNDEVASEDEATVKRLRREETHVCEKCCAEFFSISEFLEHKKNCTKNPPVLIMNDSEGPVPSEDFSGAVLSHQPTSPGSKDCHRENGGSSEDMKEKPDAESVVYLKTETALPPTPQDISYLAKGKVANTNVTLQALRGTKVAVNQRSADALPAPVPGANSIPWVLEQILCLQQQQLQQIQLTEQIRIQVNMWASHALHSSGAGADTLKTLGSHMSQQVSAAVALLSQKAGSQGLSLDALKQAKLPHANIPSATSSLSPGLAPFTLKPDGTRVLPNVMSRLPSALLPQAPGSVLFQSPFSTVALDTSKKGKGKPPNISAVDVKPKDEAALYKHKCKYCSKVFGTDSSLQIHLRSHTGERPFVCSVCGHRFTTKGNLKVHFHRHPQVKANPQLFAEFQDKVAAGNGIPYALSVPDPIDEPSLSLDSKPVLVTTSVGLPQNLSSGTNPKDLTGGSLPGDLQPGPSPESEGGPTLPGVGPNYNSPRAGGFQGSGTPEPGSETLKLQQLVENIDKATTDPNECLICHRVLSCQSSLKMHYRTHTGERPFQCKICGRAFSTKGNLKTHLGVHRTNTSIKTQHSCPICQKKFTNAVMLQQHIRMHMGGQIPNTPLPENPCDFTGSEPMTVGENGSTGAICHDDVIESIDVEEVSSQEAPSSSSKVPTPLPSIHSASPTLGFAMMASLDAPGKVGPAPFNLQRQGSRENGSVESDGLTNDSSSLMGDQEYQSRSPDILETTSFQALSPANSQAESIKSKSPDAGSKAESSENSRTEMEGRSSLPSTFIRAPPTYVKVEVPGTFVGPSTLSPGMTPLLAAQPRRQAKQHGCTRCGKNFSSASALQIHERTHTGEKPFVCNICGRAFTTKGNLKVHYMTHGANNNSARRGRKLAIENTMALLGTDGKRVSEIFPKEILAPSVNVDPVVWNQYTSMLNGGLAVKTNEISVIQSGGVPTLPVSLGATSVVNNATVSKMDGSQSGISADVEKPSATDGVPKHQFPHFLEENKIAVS
Setting: 8-mer, flanks averaged, mean of replicates
| Sequence | E-score |
| --- | --- |
| CATCTTGA | 0.00395 |
| AGTGTGCG | -0.151 |
| CGATGGGC | -0.229 |
| GGCTCGTA | -0.0233 |
| CAATACTG | 0.164 |
| GTGAAAGA | 0.172 |
| ACCTTAAC | 0.0836 |
| AAATGTCC | 0.183 |
| ATTGGGGC | -0.0737 |
| CAAGCAGA | 0.00187 |
| TCATGGCA | 0.0406 |
| GGGCGGTA | -0.278 |
| AACCCATC | -0.217 |
| GCCGCGAA | -0.219 |
| CTAAAGCC | -0.0727 |
| CGCGTAAC | -0.104 |
| AGGAAATG | 0.161 |

Series 3 — method: protein-binding microarray; molecule type: double-stranded DNA, one strand shown; medium: in vitro; tested at: 250 nM; setting: 60-bp whole probe; added: salmon DNA 0.4 mg/ml; relative to: random background probes; direction: higher = stronger binding; all sequences stand within: GCCTAGCAC … GTCTTGATTCGCTTGACGCTGCTG
Target: Interferon regulatory factor 5, full length, phosphomimetic (IRF5, Homo sapiens, UniProt Q13568-2, residues 1-514, K96S/S451D/S453D/S456D/S462D)
| Sequence | log fluorescence [z-score] |
| --- | --- |
| TTAGGTATCGGGGATCGGTTAGTGCTA | 1.7 |
| TTAGGTTTCGACTGTCGGTTAGTGCTA | 7.03 |
| TAAGGTATCGGTCTCGGTTAGTGCTAG | 5.1 |
| AGTGTCATGTTTCTATGGGCGTGCTAG | 1.01 |
| GACTAACTGAGTTTCGAGACGTGCTAG | 4.58 |
| TTAGGTATCGGGACTGCGTTAGTGCTA | 1.83 |
| TTAGGTTTCCTTTTCCTATAGTGCTAG | 1.78 |
| TCAGATAACTTTTTTTTACTGTGCTAG | 0.62 |
| TTTTTTTTCTAACTAAAAATGTGCTAG | 1.71 |
| CTTGCTTTCCAATTCTCTTTGTGCTAG | 0.85 |
| GACCGTTTCGGTATCGGGACGTGCTAG | 9.62 |
| GACGGACTGGACTTTCAGGACGTGCTA | 0.476 |
| TTAGGTATCTACTTTCGGTTAGTGCTA | 10.5 |
| TTAGGTAGCGGTATCGGTTAGTGCTAG | 4.16 |
| TTAGGTCTCGGTCTCGGTTTGTGCTAG | 0.931 |
| TCATCTATCAAAAATACAACTGTGCTA | 1.05 |
| TTAGAACCGAGACTGGATTAGTGCTAG | 0.241 |
| TTAGGTTTCGGGTCTGGGTTAGTGCTA | 8.18 |
| TCAACTTTGAATTAGAAACTGTGCTAG | 0.327 |
| GACGGTATCCTACTGCTGTCGTGCTAG | -0.276 |
| ATAGATTTCAGTCTCGATTAGTGCTAG | 2.75 |
| GACGAACTGAATTTCGAGACGTGCTAG | 1.44 |
| TTAGGACTGGGGCTGGGTTAGTGCTAG | -0.311 |
| CTTGCTTTTTAGATCGTCCCGTGCTAG | 0.508 |
| GACGGTATCGGGATCGGGACGTGCTAG | 1.33 |

Series 4 — method: RNA Bind-n-Seq; molecule type: RNA; medium: in vitro; tested at: 365 nM; relative to: no-protein control; direction: higher = stronger binding
Target: RNA binding protein fox-1 homolog 2, RRM domain, GST-SBP tag (RBFOX2, Homo sapiens, UniProt O43251-10, residues 100-194)
Setting: natural RNA segment, single round, ends assumed
All sequences stand within: GGGAGUUCUACAGUCCGACGAUC … UGGAAUUCUCGGGUGCCAA
Target sequence (chain): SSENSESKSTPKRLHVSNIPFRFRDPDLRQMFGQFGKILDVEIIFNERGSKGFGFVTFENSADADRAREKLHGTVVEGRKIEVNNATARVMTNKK
| Sequence | RBNS enrichment (R) |
| --- | --- |
| UGAAAAAUGCUAUUAGCUGAACCACAUCCACAACAGCACAUAGAGCUCUAGAAGAGUUGAAACAUAGAUCAUUGAAGGUUAAAAAUCCUCUUCCAAAGCAGCAAGUCAAU | 0.428 |
| GACAGGGGGGGUCAGCAGGAGGCUGGCUGCUUCCUGCCCUCCCCCCUCUCCCUGGGCCUACCAUGCUGCUUUUGUGCCAAGGUUAGCCAAUCCCUCCCUGCCCUAUCCUG | 0.473 |
| AUUGUUAAGGUGGACUUCAUGGCCACUGGAAGGUCUGUUUUGGUGUUACCUGAGUGUGACACAGGCCCUGGGGUGUGCGUGUUUCUCUAACUGUCUACACGUGCACAUAG | 0.343 |
| CCACUCAGCUCACCUCUCCCUCCACCUCCUCUCCACCUGCUGGUGAGAGGUGCAAAGAGGCAGAUCUUUGCUGCCAGCCACUUCAUCCCCUCCCAGAUGUUGGACCAACA | 0.41 |
| CAUGGAGUGCCCAUGCAUACUCUGCUGCCGGUCCCCUCACCUGCACUUGAGGGGUCUGGGCAGUCCCUCCUCUCCCCAGUGUCCACAGUCACUGAGCCAGACGGUCGGUU | 1.22 |
| UGCAAUUAUGAUACUCUGAGAUUUGCUGUUGUGCUUAAAGACAAAAGUCUGGACUCAGCCACAAACUACUACAGCCUGUCCACCUGAAAUCUUGACUUACCCAGUCCCCA | 0.321 |
| GCUCUAAUAUUACACAGUAAGUUCAAAGAAAGGAUGUAAGUCAAAGACUUGUUACAUAGAGGGAAAAUGGACUGGGAUAGAGGACAGACUGAUAGUUUCUUUCUUUCAUA | 0.828 |
| CCAUCUCUACCUUCCCUGGCCAGUCCUCUGACGGUUCACAAGGGCCAGAGAUAUGGACUUUAUUUUUGUUCCCAGGACUGAUGUAGCUUAGUGGCAAGUGUCUCCCUGGC | 0.512 |
| UACAGUCAGUAAGUUUCACUGCGUGCACACUGACACGUUUGAGAUUGUAGGAGGACAUAUAAUUCAUAUGCUAUGUUGUACAUUUUAUGGAAAUAUAAAAGAAUCCCACA | 0.632 |
| UCUCACAAGCGUCCUUCCUCAUAGGAAGGCUCAUCAACUGAAUUUAGUGACAUGUACACAGUAGAUGCUCAAGCAGUGUCUGCAAGGACACAAGCUGAGCUUUCUCCUUA | 0.274 |
| ACAGUGCCUGUCCACCCACCCUGCGUGUCACUGUGGCGGCCUGGCUGUCGCUGCUUUUUGUCCUCUGCCGUGUUUGCGCGGCCUCAGUGCCCUCCCUGGUGCGUCUGCGC | 0.363 |
| GACGCAAAUGAUGUUUAAGAGAGCCUUGUGAUUUGUAGCAAGCAUGGGCACUGCUUUUUCUUACUAAUGUGGUAGAUCUACACGAACAUUCUAGGCUGUUCUGCUCAGAG | 0.785 |

Excerpt of the above (series 1):
| Sequence | 7-mer Z-score |
| --- | --- |
| AGCACCU | -0.266 |
| AUCCUCG | -0.393 |
| GUCUUGA | -0.378 |
| AUCACCG | -0.144 |
| GUGCUAC | -0.121 |
| GGUUCUG | -0.186 |
| CGAGGCC | -0.213 |
| AUAGCAC | -0.124 |
| UGCCGUA | -0.36 |
| GGUCCCU | -0.208 |
